Results of several laboratories.
Numbered parts are unrelated; each lists some results of a single study. Substitutions count along the parent as printed.

Study 1
Target: Fragile X messenger ribonucleoprotein 1, C-terminal low-complexity region (Fmr1, Mus musculus, UniProt P35922)
Technique: RNA Bind-n-Seq
Molecule type: RNA
Medium: in vitro
Tested at: 200 nM
Setting: whole 134-nt RNA, ends assumed
With: 150 mM KCl
Relative to: input library
Reading: higher = stronger binding
Quantity: log2 enrichment
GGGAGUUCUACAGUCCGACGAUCCCUGUGCUACACAUCGUAUGUACCGAAUCGGGGCCCCCGGGGCCCCCGGGGCCCCCGGGGAAAGUAUUAUGUUACGCCGUUCGGAUCUGCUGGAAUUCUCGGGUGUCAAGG: -0.849
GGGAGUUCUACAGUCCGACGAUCCAGCAGUGAGUCUCUUCAGAAAACCCUUUUCUACAGUUAGGGUUGAGUUACUUCCUAUCAAGCCAGUACGUGCUAACAGGCUCAAUAUUCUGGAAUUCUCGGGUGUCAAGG: -0.648
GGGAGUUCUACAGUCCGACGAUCAACAUGCAGGUGGGCAUCUUUGGGAAGUGGGGCAAGGGGGGGAUAGGGAGGGGGGUAACACUUUGGGAACAGGUGGUCCCAGGUCGUUUCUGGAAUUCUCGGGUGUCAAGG: 0.762
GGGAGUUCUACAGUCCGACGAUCUGUGCUACACAUCGUAUGUACCGAAUCGGGUUUUUUUGGGGUUUUUUUGGGUUUUUUUGGGGAAAGUAUUAUGUUACGCCGUUCGGAUCUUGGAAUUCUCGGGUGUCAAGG: 0.169
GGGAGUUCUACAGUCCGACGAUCUUGUGGCUGAGAGACAGUUUGCAAAGGAACAACAUACAGAUGGGACACUAAAGGAAGUUGGAGAAGAUUAUCAAAUCGCAAUCCCAGAUUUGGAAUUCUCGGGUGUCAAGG: 0.242
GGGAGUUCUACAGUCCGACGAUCUUGCUGUCACCCGCUGCCUGUCUGCAGGAUCCCGGAUUCCGUAUCAGGGGACCGAAAUUAGUCGGAAAAUAGGAAGCAGGUGCUCGCUUGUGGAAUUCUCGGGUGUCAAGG: -1.62
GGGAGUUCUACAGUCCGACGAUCUGGCCCUGGUGGCAUACGGGGAGGAAGAGGUGGCCUCAUGGAUCGUGGUGGUCCCGGUGGAAUGUUCAGAGGUGGCCGUGGUGGAGACAGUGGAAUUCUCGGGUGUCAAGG: 0.017
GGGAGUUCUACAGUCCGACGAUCUGGCCCUGGUGGCAUGCGGGGAGGAAGAGGUGGCCUCAUGGAUCGUGGUGGUCCCGGUGGAAUGUUCAGAGGUGGCCGAGGUGGAGACAGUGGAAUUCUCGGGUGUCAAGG: -0.156

Study 2
Target: Transcriptional repressor CTCF (CTCF, Homo sapiens, UniProt P49711, residues 1-727, full length assumed)
Technique: protein-binding microarray
Molecule type: double-stranded DNA, one strand shown
Medium: in vitro
Tested at: not given
Setting: k-mer, scored over probes, only values ≥0.25
Reading: higher = stronger binding
Quantity: E-score
Target sequence (chain): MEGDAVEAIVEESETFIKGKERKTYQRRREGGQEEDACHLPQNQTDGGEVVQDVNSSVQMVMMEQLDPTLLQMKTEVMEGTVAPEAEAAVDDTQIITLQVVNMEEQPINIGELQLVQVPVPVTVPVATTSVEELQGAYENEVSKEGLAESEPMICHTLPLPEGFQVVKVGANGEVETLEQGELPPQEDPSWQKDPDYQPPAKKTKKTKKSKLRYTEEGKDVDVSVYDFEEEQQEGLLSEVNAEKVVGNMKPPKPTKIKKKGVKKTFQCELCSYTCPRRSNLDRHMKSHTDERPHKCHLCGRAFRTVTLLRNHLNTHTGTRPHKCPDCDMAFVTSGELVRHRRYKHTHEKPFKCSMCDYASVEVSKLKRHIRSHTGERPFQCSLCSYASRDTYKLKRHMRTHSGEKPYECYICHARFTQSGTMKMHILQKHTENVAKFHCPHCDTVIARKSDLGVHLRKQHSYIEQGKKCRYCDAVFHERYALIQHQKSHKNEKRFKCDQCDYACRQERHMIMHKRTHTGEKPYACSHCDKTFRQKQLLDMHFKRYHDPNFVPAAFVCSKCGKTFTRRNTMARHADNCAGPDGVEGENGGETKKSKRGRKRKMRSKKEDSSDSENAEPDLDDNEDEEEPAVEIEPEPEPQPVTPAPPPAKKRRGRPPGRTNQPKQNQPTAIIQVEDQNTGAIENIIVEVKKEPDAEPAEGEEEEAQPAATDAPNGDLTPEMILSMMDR
ACACCTAC: 0.259
CTTTTCAC: 0.316
TATATTGA: 0.361
AATACATG: 0.26
GCGCGATA: 0.344
ACCCCACC: 0.256
GTTATATA: 0.37
AAAAATTT: 0.317

Study 3
Target: Centromere-binding protein 1, full length, His-tagged (CBF1, Saccharomyces cerevisiae, UniProt P17106, residues 1-351)
Chain of UniProt P17106 (whole entry, looked up): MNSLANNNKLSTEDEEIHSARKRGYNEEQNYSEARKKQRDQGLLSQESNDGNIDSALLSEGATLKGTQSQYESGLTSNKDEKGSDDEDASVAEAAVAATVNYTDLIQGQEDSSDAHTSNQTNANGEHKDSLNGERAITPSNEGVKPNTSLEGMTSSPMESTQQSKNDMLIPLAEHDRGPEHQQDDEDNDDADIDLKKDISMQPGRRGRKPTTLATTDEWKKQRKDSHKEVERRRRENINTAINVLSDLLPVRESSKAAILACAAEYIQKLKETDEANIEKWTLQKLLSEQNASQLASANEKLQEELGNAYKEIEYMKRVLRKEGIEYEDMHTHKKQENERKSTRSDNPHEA
Technique: competition protein-binding microarray
Molecule type: double-stranded DNA, one strand shown
Medium: in vitro
Tested at: 2 µM
Setting: whole 60-bp probe, lowest competitor level
With: Pho4 competitor, 0.05 µM
Reading: higher = stronger binding
Quantity: fluorescence intensity
AGTAATGTCTTTCAACACGTCAACAACTCCTCGGGAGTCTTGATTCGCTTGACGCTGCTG: 85.7 a.u.
GTTACTATTCTTTGCATCGTGCATCGACTTACACCAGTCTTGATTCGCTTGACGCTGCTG: 88.2 a.u.
GTCTTGTCTCATTGATAGGTGGGTGTCCCCACTTCAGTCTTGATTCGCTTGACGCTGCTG: 90 a.u.
TGCGCAACAACTTGTCACCGGACTTTATGTCTAGAAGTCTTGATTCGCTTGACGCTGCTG: 98.6 a.u.
GAGGTTGGTACTATGAACGTGTTCCTGGTTTTCCTGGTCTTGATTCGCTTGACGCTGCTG: 83.2 a.u.
GTAGTCCTGAGCCAACGCATGCCGGTTTTGTTGGTGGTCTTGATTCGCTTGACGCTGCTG: 74.2 a.u.
TGGATACATTGAAGCTGCGTGACGGATTGGCCTCGGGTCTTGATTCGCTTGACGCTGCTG: 87.7 a.u.
GGCGTCGTACAAGAGAACGTGGGTACTTTTTAGGCTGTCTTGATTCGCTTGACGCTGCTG: 90.2 a.u.

Other studies, line by line
Starting sequence: PafA, mature enzyme, eGFP fusion (Elizabethkingia meningoseptica, UniProt Q9KJX5); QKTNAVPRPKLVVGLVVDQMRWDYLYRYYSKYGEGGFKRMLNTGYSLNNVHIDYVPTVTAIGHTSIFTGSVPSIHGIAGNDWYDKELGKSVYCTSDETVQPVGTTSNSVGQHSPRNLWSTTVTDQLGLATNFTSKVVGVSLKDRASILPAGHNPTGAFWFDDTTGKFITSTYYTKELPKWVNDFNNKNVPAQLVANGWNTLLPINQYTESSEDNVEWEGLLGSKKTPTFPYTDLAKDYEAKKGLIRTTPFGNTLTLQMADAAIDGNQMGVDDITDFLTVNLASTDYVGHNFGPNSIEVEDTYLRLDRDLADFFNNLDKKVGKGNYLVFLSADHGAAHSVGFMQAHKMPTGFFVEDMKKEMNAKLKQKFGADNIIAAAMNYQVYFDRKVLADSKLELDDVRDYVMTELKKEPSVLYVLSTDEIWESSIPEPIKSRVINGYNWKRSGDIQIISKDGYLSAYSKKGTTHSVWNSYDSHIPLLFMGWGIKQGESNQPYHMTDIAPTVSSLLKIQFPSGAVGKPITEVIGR
K357V
oxyanion analog dissociation constant (tungstate, free oxyanion; microfluidic competitive inhibition; in vitro, cell-free expressed; not given, derived from inhibition constants, unchanged parent 2230 nM; lower = stronger binding): 2.42 µM

Repeated from above (study 2):
CTTTTCAC: 0.316
TATATTGA: 0.361
ACACCTAC: 0.259
